Results from different studies.
Compare with care: the assays were run in different laboratories.
PFF0160c E182D: Dihydroorotate dehydrogenase (quinone), mitochondrial (PFF0160c, Plasmodium falciparum, UniProt Q08210, E182D)
TMPRSS2: Transmembrane protease serine 2 (TMPRSS2, Homo sapiens, UniProt O15393)
Chain of UniProt O15393 (whole entry, looked up): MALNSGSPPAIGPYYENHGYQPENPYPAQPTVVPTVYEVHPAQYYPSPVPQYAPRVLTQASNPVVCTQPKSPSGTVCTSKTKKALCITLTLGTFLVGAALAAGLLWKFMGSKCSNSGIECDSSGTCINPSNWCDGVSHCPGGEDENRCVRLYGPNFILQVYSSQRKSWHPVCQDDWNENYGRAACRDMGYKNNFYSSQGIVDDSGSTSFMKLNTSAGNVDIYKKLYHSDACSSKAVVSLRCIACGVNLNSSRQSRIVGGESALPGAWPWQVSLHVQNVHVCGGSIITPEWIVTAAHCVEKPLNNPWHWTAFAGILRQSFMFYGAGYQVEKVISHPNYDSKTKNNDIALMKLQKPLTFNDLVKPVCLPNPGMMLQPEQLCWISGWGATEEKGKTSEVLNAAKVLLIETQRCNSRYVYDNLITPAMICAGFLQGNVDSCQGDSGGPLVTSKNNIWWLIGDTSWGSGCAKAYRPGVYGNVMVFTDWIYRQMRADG
Chain of UniProt Q9UKE5 (whole entry, looked up): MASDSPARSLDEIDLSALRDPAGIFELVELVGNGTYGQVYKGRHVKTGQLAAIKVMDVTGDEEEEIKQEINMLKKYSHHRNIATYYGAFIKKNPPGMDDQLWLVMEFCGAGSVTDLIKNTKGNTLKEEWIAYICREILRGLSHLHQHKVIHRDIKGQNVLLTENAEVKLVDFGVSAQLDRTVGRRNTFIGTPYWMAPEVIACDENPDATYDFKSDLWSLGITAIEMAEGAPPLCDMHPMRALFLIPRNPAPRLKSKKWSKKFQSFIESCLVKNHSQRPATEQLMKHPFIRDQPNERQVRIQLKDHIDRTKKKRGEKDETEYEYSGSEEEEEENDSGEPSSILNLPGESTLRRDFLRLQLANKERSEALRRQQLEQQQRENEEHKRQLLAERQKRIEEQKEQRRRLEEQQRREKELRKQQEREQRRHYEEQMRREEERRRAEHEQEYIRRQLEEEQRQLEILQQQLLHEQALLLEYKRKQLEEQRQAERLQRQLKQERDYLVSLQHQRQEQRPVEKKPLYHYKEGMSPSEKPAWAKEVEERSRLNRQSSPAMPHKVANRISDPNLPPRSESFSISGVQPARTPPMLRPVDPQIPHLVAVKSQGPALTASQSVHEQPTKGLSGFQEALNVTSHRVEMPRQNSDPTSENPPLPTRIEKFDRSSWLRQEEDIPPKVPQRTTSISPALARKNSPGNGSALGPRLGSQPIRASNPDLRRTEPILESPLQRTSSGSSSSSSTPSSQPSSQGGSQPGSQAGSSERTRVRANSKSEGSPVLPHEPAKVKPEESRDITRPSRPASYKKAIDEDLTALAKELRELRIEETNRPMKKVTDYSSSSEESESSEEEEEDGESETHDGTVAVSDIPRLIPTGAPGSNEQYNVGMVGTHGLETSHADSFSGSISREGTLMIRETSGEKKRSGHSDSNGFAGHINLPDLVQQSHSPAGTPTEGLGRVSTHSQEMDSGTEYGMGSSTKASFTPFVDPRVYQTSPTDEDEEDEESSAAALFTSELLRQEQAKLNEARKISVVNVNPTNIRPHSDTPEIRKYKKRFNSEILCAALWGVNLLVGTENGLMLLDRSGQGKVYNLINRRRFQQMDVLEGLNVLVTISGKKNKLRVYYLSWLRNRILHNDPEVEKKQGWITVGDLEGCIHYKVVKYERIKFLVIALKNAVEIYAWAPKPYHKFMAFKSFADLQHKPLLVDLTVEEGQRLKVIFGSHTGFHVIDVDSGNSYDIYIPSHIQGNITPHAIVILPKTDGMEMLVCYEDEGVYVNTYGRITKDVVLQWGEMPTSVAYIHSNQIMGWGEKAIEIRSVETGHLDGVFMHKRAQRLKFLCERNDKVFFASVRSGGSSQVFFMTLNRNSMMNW
Chain of UniProt O00444 (whole entry, looked up): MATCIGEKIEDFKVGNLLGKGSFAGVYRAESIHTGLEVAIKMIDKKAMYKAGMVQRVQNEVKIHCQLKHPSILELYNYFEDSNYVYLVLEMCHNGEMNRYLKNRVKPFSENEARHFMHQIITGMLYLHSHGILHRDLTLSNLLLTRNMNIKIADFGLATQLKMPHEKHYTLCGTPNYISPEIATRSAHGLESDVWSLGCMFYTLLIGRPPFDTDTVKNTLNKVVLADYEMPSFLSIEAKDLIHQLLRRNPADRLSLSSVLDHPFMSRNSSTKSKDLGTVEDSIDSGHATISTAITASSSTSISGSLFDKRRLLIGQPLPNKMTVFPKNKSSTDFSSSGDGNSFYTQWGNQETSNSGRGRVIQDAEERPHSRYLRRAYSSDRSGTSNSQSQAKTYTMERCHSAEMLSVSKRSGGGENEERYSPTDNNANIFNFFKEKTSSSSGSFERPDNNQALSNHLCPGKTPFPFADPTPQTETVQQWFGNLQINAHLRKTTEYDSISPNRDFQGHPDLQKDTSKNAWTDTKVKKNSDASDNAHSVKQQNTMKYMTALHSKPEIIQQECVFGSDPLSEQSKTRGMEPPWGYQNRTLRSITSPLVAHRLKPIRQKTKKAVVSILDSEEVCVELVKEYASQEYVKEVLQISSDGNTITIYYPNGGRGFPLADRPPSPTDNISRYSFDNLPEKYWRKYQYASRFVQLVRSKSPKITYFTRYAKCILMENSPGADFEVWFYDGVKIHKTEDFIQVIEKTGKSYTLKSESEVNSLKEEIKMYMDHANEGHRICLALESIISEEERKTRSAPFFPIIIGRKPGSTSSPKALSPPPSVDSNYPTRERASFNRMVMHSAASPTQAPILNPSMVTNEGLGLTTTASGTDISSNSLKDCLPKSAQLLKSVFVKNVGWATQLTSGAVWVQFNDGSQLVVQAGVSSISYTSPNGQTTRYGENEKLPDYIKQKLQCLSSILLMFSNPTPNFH
Chain of UniProt P07711 (whole entry, looked up): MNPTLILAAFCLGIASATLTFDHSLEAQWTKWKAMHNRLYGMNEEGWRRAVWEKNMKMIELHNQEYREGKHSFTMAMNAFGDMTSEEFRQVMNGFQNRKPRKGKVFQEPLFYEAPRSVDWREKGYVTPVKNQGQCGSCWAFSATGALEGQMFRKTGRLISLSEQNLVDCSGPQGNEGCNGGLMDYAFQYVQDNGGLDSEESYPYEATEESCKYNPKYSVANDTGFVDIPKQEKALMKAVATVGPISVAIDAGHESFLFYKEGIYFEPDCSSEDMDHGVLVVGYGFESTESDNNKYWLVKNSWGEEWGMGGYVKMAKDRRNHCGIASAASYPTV
Chain of UniProt O75460 (whole entry, looked up): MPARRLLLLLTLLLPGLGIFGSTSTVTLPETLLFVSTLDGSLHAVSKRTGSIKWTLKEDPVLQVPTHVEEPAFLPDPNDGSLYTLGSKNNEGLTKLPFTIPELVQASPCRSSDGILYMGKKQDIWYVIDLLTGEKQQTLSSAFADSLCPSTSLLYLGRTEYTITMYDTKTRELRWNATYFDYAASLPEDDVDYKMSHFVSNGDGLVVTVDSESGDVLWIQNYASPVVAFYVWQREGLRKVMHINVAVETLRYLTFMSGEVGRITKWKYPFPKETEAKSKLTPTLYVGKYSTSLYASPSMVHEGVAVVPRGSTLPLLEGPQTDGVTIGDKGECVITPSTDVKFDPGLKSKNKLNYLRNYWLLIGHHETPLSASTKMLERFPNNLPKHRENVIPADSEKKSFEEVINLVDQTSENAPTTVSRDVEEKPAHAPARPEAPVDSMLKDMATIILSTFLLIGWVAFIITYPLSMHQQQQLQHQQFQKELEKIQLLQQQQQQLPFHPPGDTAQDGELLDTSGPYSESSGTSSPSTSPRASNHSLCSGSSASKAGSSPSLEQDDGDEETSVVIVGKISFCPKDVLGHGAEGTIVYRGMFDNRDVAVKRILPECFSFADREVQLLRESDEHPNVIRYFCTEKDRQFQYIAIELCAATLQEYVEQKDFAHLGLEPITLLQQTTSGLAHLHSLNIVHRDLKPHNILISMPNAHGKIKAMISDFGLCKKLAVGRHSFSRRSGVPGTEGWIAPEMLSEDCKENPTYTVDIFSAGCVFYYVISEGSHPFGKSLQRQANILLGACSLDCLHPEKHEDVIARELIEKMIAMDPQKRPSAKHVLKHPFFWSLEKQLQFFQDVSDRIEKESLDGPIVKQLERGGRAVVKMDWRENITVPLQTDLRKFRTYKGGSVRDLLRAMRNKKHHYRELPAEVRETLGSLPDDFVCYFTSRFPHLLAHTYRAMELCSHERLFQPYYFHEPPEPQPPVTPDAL
Chain of UniProt P08588 (whole entry, looked up): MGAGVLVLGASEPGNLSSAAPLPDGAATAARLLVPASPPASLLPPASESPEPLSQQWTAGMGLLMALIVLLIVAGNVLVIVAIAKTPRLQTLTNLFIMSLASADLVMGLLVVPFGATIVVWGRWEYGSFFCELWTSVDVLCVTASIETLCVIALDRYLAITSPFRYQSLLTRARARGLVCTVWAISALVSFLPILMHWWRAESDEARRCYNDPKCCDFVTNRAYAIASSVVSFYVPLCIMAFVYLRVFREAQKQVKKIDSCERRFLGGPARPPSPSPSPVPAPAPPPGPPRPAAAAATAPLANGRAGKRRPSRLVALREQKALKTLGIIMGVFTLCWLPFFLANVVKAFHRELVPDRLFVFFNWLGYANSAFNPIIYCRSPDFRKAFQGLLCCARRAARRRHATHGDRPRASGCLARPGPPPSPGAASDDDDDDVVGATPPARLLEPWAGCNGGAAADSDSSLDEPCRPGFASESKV
Chain of UniProt P47898 (whole entry, looked up): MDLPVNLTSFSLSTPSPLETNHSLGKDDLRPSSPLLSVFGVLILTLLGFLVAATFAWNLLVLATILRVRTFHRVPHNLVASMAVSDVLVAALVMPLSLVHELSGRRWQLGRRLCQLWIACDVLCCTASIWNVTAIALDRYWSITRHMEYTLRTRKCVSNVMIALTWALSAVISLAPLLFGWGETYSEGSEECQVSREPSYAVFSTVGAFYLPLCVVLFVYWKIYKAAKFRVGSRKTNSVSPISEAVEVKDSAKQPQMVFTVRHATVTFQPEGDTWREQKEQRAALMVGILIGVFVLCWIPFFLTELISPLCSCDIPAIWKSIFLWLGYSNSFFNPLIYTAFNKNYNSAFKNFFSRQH

SMILES | target or system | test | system | conditions | endpoint | result
N.N.[Cl][Pt][Cl] | SU-DHL-2 | cell growth or viability, ATP luminescence |  | 10 µM, 72 h | inhibition | 100%
Nc1ncc(-c2nc(N3CCOCC3)nc(N3CCOCC3)n2)c(C(F)F)n1 | PLK4 (Homo sapiens, UniProt O00444) | binding, competition with immobilised ligand |  | 10 µM | remaining binding | 69%
c1cncc([C@@H]2CCCN2)c1 | HTR5A (Homo sapiens, UniProt P47898) | ligand displacement |  | 50 µM | inhibition | 22.5%
CCCCCCCc1cc(=O)c2ccccc2[nH]1 | Procathepsin L (CTSL, Homo sapiens, UniProt P07711) | enzyme activity, inhibitor |  | 100 µM | remaining activity | 70.2%
COc1ncccc1-c1cnn2ccc(N3CCN(C(=O)OC(C)C)CC3)nc12 | HUNK (Homo sapiens, UniProt P57058) | binding, competition with immobilised ligand |  | 1 µM | remaining binding | 56%
[2H]c1c([2H])c([C@]2([2H])CCCN2C(=O)C(C)(C)Oc2ccc3cn[nH]c3c2)c([2H])c([2H])c1C([2H])([2H])[2H] | ERN1 (Homo sapiens, UniProt O75460) | binding, competition with immobilised ligand |  | 1 µM | remaining binding | 85%
CC(=O)c1c(Cc2ccccc2Cl)c[nH]c1C | PFF0160c E182D | enzyme activity, inhibitor, absorbance |  |  | IC50 | 149 nM
Nc1c2c(nc3c1C(c1cccc([N+](=O)[O-])c1)c1ccc(OCC(=O)c4ccc(Cl)cc4)cc1O3)CCCC2 (stereo not drawn) | SH-SY5Y | cell growth or viability, MTT |  | 6.3 µM | viability | 66.5%
CCN(CC)CCCC[C@H](NC(=O)[C@H](CC(C)C)NC(=O)[C@H](C)NC(=O)[C@H](Cc1ccccc1)NC(=O)c1ccc(C(C)(C)C)cc1)C(=O)N[C@@H](CO)C(=O)OC | Bromodomain and WD repeat-containing protein 1, BD2 (BRWD1, Homo sapiens, UniProt Q9NSI6) | thermal stability, DSF |  | 25 µM | ΔTm | 0.95 °C
CC(C)[C@H](NC(=O)[C@H](CCc1ccccc1)NC(=O)CCc1ccccc1)C(=O)N[C@@H](CCCNC(=N)N)C(=O)c1nc2ccccc2s1 | TMPRSS2 | enzyme activity, inhibitor |  | 1 nM | activity vs control | 71%
COc1cc(C(F)(F)F)c(OC)cc1C1CCCNC1 (stereo not drawn) | Htr2a (Mus musculus, UniProt P35363) | G protein activation, agonist, BRET |  |  | Emax | 95%
Cn1ccnc1C(=O)N[C@@H](CCC(N)=O)C(=O)N[C@@H](Cc1ccccc1)C(=O)N[C@@H](CCCNC(=N)N)C(=O)c1nc2ccccc2s1 | TMPRSS2 | enzyme activity, inhibitor |  | 1 nM | activity vs control | 88%
Cc1nc(Nc2ccc(C)c(Cl)c2)c2c(C)noc2n1 | PFF0160c E182D | enzyme activity, inhibitor, absorbance |  |  | IC50 | 2620 nM
CC(=O)N[C@@H](CCC(N)=O)C(=O)N[C@@H](Cc1ccccc1)C(=O)N[C@@H](CCCNC(=N)N)C(=O)c1nc2ccccc2[nH]1 | TMPRSS2 | enzyme activity, inhibitor |  | 1 nM | activity vs control | 91%
CN1CCC[C@H]1c1cccnc1 | ADRB1 (Homo sapiens, UniProt P08588) | ligand displacement |  | 50 µM | inhibition | -6.55%
N=C(N)NCCCCC(=O)N[C@@H](CCC(N)=O)C(=O)N[C@@H](Cc1ccc2ccccc2c1)C(=O)N[C@@H](CCCNC(=N)N)C(=O)c1nc2ccccc2s1 | TMPRSS2 | enzyme activity, inhibitor |  | 1 nM | activity vs control | 86%
CC[C@H](C)[C@H](NC(=O)[C@H](Cc1ccccc1)NC(=O)[C@H](CCC(=O)O)NC(=O)[C@H](CCCNC(=N)N)NC(=O)[C@H](C)NC(=O)[C@H](C)NC(=O)[C@H](CCC(N)=O)NC(=O)[C@H](CCC(=O)O)NC(=O)[C@H](CCC(=O)O)NC(=O)[C@H](CC(C)C)NC(=O)[C@H](Cc1ccc(O)cc1)NC(=O)[C@H](CO)NC(=O)[C@H](CO)NC(=O)[C@@H](NC(=O)[C@H](CC(=O)O)NC(=O)[C@H](CO)NC(=O)[C@@H](NC(=O)[C@H](Cc1ccccc1)NC(=O)[C@@H](NC(=O)CNC(=O)[C@H](CCC(=O)O)NC(=O)[C@H](C)NC(=O)CCc1c[nH]cn1)[C@@H](C)O)[C@@H](C)O)C(C)C)C(=O)N[C@@H](C)C(=O)N[C@@H](Cc1c[nH]c2ccccc12)C(=O)N[C@@H](CC(C)C)C(=O)N[C@H](C(=O)N[C@@H](CCCNC(=N)N)C(=O)NCC(=O)N[C@@H](CCCNC(=N)N)C(=O)N[C@@H](CCCCNC(=O)COCCOCCNC(=O)COCCOCCNC(=O)CC[C@H](NC(=O)CCCCCCCCCCCCCCCCC(=O)O)C(=O)O)C(=O)NCC(=O)NCC(=O)N[C@@H](CO)C(=O)N[C@@H](CCCCNc1c(NCCCCCN(O)C(=O)CCC(=O)NCCCCCN(O)C(=O)CCC(=O)NCCCCCN(O)C(C)=O)c(=O)c1=O)C(=O)O)C(C)C |  |  | rat, plasma | subcutaneous, 20 nmol/kg | bioavailability | 50.8%
COC(=O)c1cc(-c2cccc(NC(=O)Nc3cccc(C(F)(F)F)c3)c2)on1 | Pseudomonas aeruginosa | microbial growth, broth dilution | ATCC27853 |  | MIC | > 64 µg/mL
Cc1nn(C)cc1-c1nc2c(N3CCN(Cc4ccc(Cl)cc4)CC3)c(Cl)cnc2[nH]1 | TNIK (Homo sapiens, UniProt Q9UKE5) | binding, competition with immobilised ligand |  | 1 µM | remaining binding | 93%
C[C@]12CC[C@H]3[C@@H](CC=C4CC(O)CC[C@@]43CO)[C@@H]1CCC2O (stereo partly drawn) |  |  | rat, plasma | intravenous, 1 mg/kg | half-life | 7.8 min
COc1cnc(OC)n2nc(NS(=O)(=O)c3c(OCC(F)F)cccc3C(F)(F)F)nc12 | L02 | cell growth or viability, CCK-8 |  | 6.25 µM, 72 h | inhibition | 0%
CS(=O)(=O)N[C@@H](CCCNC(=N)N)C(=O)N[C@@H](CCC(N)=O)C(=O)N[C@@H](Cc1ccccc1)C(=O)N[C@H](CCCNC(=N)N)C(=O)c1nccs1 | TMPRSS2 | enzyme activity, inhibitor |  | 1 nM | activity vs control | 61%
CC(C)CC(=O)OC[C@H]1O[C@@](C#N)(c2ccc3c(N)ncnn23)[C@H](O)[C@@H]1O | ACE (Homo sapiens, UniProt P12821) | enzyme activity, inhibitor |  | 20 µM | inhibition | -15%
C#Cc1n[nH]c2c(-c3cn(C(C)c4ccccn4)c(=O)[nH]c3=O)cc(F)cc12 (stereo not drawn) | KDR (Homo sapiens, UniProt P35968) | enzyme activity, inhibitor |  | 1 µM | inhibition | -1.1%
Oc1ccc(C[C@@H]2CN([C@H](Cc3ccc4ccccc4c3)CN3CCC[C@H]3CN3CCNC[C@@H]3Cc3ccc4ccccc4c3)CCN2CCC23CC4CC(CC(C4)C2)C3)cc1 | OPRK1 (Cavia porcellus, UniProt P41144) | ligand displacement, radioligand |  | 0.5 µM, pH 7.5 | remaining binding | 98.7%
CN(C)[C@@H](CCC(N)=O)C(=O)N[C@@H](Cc1ccccc1)C(=O)N[C@H](CCCNC(=N)N)C(=O)c1nc2ccccc2s1 | TMPRSS2 | enzyme activity, inhibitor |  | 1 nM | activity vs control | 59%
CC(C)C[C@H](NC(=O)[C@H](Cc1ccccc1)NC(=O)[C@H](Cc1ccccc1)NC(=O)Cc1ccc(-c2ccccc2)cc1)C(=O)N[C@@H](CCCCN)C(=O)N[C@@H](CCCNC(=N)N)C(=O)N[C@H](C(=O)N[C@@H](Cc1c[nH]c2ccccc12)C(=O)N[C@@H](CCCCN)C(=O)N[C@@H](CCCNC(=N)N)C(=O)O)C(C)C |  | metabolic stability, mass spectrometry | mouse, liver microsomes | 15 min | compound remaining | 29.8%

Some of these lines once more:
SMILES | target or system | test | system | conditions | endpoint | result
CN(C)[C@@H](CCC(N)=O)C(=O)N[C@@H](Cc1ccccc1)C(=O)N[C@H](CCCNC(=N)N)C(=O)c1nc2ccccc2s1 | TMPRSS2 | enzyme activity, inhibitor |  | 1 nM | activity vs control | 59%
CC(C)C[C@H](NC(=O)[C@H](Cc1ccccc1)NC(=O)[C@H](Cc1ccccc1)NC(=O)Cc1ccc(-c2ccccc2)cc1)C(=O)N[C@@H](CCCCN)C(=O)N[C@@H](CCCNC(=N)N)C(=O)N[C@H](C(=O)N[C@@H](Cc1c[nH]c2ccccc12)C(=O)N[C@@H](CCCCN)C(=O)N[C@@H](CCCNC(=N)N)C(=O)O)C(C)C |  | metabolic stability, mass spectrometry | mouse, liver microsomes | 15 min | compound remaining | 29.8%
